Assay results of several laboratories.
A part holds a random share of what one study measured. Substitutions count along the parent as printed.

Study 1 — method: RNA Bind-n-Seq; form: RNA; sample: in vitro; concentration: 365 nM; baseline: no-protein control; direction: higher = stronger binding
Target: RNA binding protein fox-1 homolog 2, RRM domain, GST-SBP tag (RBFOX2, Homo sapiens, UniProt O43251-10, residues 100-194)
Setting: natural RNA segment, single round, ends assumed
All sequences stand within: GGGAGUUCUACAGUCCGACGAUC … UGGAAUUCUCGGGUGCCAA
Construct (chain): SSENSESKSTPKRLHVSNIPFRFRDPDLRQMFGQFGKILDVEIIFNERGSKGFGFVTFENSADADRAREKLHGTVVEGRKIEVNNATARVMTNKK
Sequence	RBNS enrichment (R)
CCCCACCACCAUAGUUUUGUGCUAUCCUAGUUUCUGUUAAGAUUGGUGCUAUCCAAUUCCCAUCACUAGGAGGUGGCUGAGCUUGAGGCUUGCCAGACACAGGAAUGGCC	0.211
AAGAGAACUCCAGGCUCAGCAUUCUGUUGAGUAACUUGCUACCUGCUCGGCUUUCCACUCUGCCAGGUCCACAUGGCAGGUGCCUCUCCUUCAUUUCUGGUGGCUUGGCU	0.269
AGUAACAGACUUAGGUACUGCUAAGCAGUUAUUAACACAAUAUUCCUUAGUUUUCAUAUGUUGGUUAUUCAUAUGUCUAUUUAUAUGUAUAUUUAUUUUUAUGUAUGUUA	0.608
CCCGGAAGGCCGAGUUCUGGUAUUGCUGAGGUUGCCCUGACAUAGCUUUCCAUGUAUCCUGUUAUUUCUGAAUCCACCUUACCUCAUGUCCUCAGAGUACCUAUAAACAC	0.623
GAGCCCCUCAGAGCUUCUACAUCUGUGCAUCAGAAAUCUCACAGCCUUCUCAUGCUGCCGGCUCAUCUGGGCCCAUAGAGUGGGCUUUGCCAGUUGCUGUUGCACAGGAG	0.577
GACUCAGUUAGGAGGCAUAAAUCUGCCCGGAAUAAACUAGGCCAGGAUACAGCCAUGUUUAGUUAAUAAUUUGGUUUUAGAAUUCACACAGGCAGGAUUGGUUUUUUUGU	0.654
AUCCAUUUCCCCACUUAUUUAUAACCAGCCUUCCUUUCAGUCCUAGUGCCUGGAUCAAUGAGAUGGACACUAAUGCUGCUUCUUUAUAAUAAUAGUACCUAAGAGUAUUG	0.615
UUAUGACUGGUAAGAGGGAGUGCUCCUGGACCCUGCUCGUGUGCCUUUUUCUACUGUUCAUUUUAUUCUGUGGCCUUUCAGUGUAAUAAACUGAAAUCAUGACUUUCACA	0.518
AUGAACUGCAGGCCCCCUUUUGCCAUUGAUCUCAAAGCACUUGUCCUCAGGAUAGGGAAGAGCAGGGGGAUGCAGGAAUAGCAGGGAUAGCUUGCUCCCAGCCCCCUCCC	1.07
GUUCUUCAAGCCAGCUCUAGGCUUCAGGCCGAGCCAGGUUCACACUCAGAAAGAGGUCUCCCCAUCCCCAUUCGGGGCUGACGAUGGGGGGCUGAUGGCUGCCCCUGCGU	0.216
AGAGGGAAGCUCUAACAUUGCCUCUGUAAUAUAAUGCUAGUGACUGUAUGUAGUACAUGUUAUAUGUGUAUAAUCUUUUUACUGAUAGACUGGAAACAUGUCAUCAUUUU	0.388
CGCCCUCAUCAGGCAGCCCCCAGCCCCCUGAGGCCCUGUCCAUCUUCUCCCCACCACCGCCCCGGUGUGCGUACCCAGGCGCACGUGCUGCAGCCCCCGGAGGCCCCGCU	0.695

Study 2 — target: NFE2L2, bZIP domain (human); method: DHFR protein complementation; sample: yeast; baseline: wild-type JUN-FOS pair; direction: higher = stronger binding
Setting: single substitutions, most at no-binding floor
Parent: JUN, bZIP domain (human); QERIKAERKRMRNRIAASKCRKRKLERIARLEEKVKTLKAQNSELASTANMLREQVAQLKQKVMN; partner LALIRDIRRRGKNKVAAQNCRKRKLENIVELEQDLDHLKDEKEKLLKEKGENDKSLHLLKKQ
Variant	binding fitness
Q55M	-1.47 natural log
A40C	-1.45 natural log
Q55P	-1.55 natural log
A46P	-1.41 natural log
R53Q	-1.51 natural log
E32D	-1.49 natural log
I28N	-1.47 natural log
E44W	-1.34 natural log
K39W	-1.52 natural log
Q41E	-1.51 natural log
T37C	-1.2 natural log
A29M	-1.58 natural log
A49Q	-1.53 natural log
S47M	-1.26 natural log
T37K	-1.1 natural log
A40V	-1.28 natural log
S43Q	-1.31 natural log
S43I	-1.45 natural log
E32S	-1.54 natural log
S43A	-1.39 natural log

Study 3 — method: RNA Bind-n-Seq; form: RNA; sample: in vitro; concentration: not given; baseline: input RNA pool; direction: higher = stronger binding
Target: RING finger protein unkempt homolog, zinc fingers 1-6, GST-SBP tag (UNK, Homo sapiens, UniProt Q9C0B0, residues 30-357)
Setting: RNA with constant flanks, human-mouse chimeric sites, ends assumed
All sequences stand within: GGGAGUUCUACAGUCCGACGAUC … CAACAGAGGAUUGAGCAUCA
Residues (chain): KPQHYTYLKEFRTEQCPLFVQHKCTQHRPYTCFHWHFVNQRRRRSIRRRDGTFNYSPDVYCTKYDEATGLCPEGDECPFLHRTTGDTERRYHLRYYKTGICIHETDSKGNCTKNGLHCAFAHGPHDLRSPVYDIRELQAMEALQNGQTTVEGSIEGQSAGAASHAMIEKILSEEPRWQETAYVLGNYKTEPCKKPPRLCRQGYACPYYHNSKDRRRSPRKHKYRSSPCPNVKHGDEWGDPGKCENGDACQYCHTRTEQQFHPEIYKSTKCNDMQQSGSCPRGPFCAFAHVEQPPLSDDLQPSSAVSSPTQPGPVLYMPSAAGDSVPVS
Sequence	bound/input enrichment [ratio]
CACACCCUCUUCUGCGGGACCCUCAUCCUGCAGGCCCGGGCCUAUGUGGGACCGCACGUCCUGGCAGUGGUGACCCGCACAGGGUUCUGCACGGCAAAAGGGGGCCUGGUGAGCUCCAUC	0.0531
CUGUGACCACAAGAUCCUACCUGAGUGGCAGCUGAAGCACUUUUCUUCCCCUUCCCUGAACCCCCCCCCACUGCCCCCCCAUCCCCCAGUGUCGGCUGAGAUGUUGCCUCUGCACGGUUC	1.32
CUAGCAGUCCAGCAGCUCCUUGAAAUAUUGAGACAAACACUCCACACACAGGGAAGGCGAUAACAUUGUACAUUGGUUUACAUUUUUUCCCCCUGUGGAUUUUUCUAGAGGUCAUAGUGC	0.798
GCGGCAGAAUCAUGGAGGACAUAAUGCAGCUCCCCAAGUCGCGCAUCAACGCCGGCAUGUUACCACAGUAUAUCGACCGGCCCGUGUGCUUCGUGGGGAAGCUGGAAAAGAUUCAUCCCA	0.07
GGAAGCACAAUGAUGGAAAUAGAUGGCGACAAAGGCAAGCAGGGCGGGCCCACCUACUACAUAGACACCAAUGCCCUCCGCGUGCCCAGGGAGAACAUGGAGGCCAUCUCACCACUCAAG	0.21
UCAGAAGCUGUGCUGGGUCACUUUUCAUAUCCUGAUCCUUCACAGUGGACAGAUGAAGAACUGGGAAUCCCUCCUGAUGACGAGGACUGACACUGUAAACUCUCUGGACGAGUAGGAGCA	0.656
AGGAGGAGGUUAAAGGGUGAGAGUGGGAUGGAGGAUUGUGUCAUGGCUCUGGAGACACUGUUCAGUGUCCUGCUUUCUCUUUGCAGACUGAUGGCCCCUUACACGCCCUUUCUGACUGAG	0.158
UUUGUAUUUAUGCUAAGCACACGUGCUGGUGGUCUGGGCAUCAAUCUUGCAACUGCUGAUGUAGUCAUUUUAUAUGAUUCUGAUUGGAAUCCCCAAGUUGAUCUUCAGGCUAUGGACCGU	0.185
AAAGAACCUCUCUCUGAUGAAGAUGAGGAAGACAAUGAUGAUGUUGAACCCAUUUCUGAAUUUAGAUUUGUGCCUAGUGAUAAGUCAGCAUUGGAGGCGAUGUUCACAGCAAUGUGUGAG	1.48
CUGUGACCACAAGAUCCUACCUGAGUGUUCAGAUGGGUUGACUCCCUCUCCUUGCCUGAACCCCCCCCCACUGCCCCCCCAUCCCCCGCAGAAUUCCGAGAUGUUGCCUCUGCACGGUUC	0.661
CAGGGCAUCAUCUCUCGUGCUGUUAGACACCUGUUCAAGAGUAUUGAUGAGAAAAAGACCUCAGCGAUUAAAAAUGGGCUGCCCCCUCCUGAAUUCAAAGUGAAUGCCCAAUUCUUAGAG	0.486

Study 4 — method: DHFR PCA, deep sequencing; sample: yeast; with: (+)-ABA 17 µM; baseline: wild-type fitted maximum; direction: higher = stronger binding
Target: ABI1, truncated, D143A, DHFR fusion (Arabidopsis thaliana)
Setting: methotrexate growth selection, single substitutions
Parent: PYL1, truncated, DHFR fusion (Arabidopsis thaliana); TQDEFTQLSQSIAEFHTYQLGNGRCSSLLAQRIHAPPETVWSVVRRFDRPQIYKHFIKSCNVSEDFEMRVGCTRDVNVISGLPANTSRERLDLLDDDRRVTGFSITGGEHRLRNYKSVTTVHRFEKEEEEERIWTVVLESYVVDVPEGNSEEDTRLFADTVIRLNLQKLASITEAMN; partner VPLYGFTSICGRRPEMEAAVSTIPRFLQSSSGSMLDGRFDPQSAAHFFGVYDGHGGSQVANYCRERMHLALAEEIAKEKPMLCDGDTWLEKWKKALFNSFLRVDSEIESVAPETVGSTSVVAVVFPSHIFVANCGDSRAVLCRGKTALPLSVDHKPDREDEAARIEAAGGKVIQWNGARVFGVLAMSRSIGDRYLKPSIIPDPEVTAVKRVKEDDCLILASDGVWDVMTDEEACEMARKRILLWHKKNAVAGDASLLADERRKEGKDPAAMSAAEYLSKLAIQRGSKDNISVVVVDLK
Variant	relative binding score [%]
T119R	0.0198
G108T	6.16
G71E	-11.3
F5I	79.1
D65I	49.4
I133F	93.9
V78F	73.8
L8Q	52.5
Q2M	78.7
N22I	82.3
T6F	70.6
S63N	80.9
Y53S	-3.03

Study 5 — method: universal PBM; form: double-stranded DNA, one strand shown; sample: in vitro; concentration: 600 nM; direction: higher = stronger binding
Target: Sal-like protein 4, full length isoform A (SALL4, Homo sapiens, UniProt Q9UJQ4, residues 1-1053)
Sequence of UniProt Q9UJQ4 (whole entry, looked up): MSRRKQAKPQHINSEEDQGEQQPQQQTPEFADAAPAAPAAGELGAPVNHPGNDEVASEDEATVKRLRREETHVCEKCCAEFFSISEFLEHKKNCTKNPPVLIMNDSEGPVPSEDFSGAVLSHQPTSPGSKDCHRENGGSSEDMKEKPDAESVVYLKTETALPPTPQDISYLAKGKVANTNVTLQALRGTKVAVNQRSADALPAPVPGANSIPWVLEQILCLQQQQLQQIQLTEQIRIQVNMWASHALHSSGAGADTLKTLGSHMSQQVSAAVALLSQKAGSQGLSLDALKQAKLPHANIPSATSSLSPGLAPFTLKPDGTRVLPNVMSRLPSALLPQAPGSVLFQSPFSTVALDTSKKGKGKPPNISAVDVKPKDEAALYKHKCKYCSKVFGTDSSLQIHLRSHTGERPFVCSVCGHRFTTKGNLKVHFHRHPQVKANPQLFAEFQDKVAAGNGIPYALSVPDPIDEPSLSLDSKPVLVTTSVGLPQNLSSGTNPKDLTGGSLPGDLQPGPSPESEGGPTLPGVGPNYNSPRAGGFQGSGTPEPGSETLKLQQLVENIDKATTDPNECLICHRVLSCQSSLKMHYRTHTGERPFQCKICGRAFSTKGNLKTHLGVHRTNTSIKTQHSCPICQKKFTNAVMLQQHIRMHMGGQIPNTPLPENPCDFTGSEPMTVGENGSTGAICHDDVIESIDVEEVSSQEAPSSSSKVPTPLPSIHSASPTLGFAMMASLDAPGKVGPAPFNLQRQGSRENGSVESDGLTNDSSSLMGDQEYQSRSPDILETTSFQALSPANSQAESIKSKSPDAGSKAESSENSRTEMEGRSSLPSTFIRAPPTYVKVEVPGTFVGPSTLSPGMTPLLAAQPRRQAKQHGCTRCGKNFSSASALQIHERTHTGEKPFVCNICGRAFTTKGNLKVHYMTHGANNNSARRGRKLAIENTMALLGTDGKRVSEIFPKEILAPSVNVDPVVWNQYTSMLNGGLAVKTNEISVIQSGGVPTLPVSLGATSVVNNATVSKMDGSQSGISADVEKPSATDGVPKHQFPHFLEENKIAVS
Setting: 8-mer, flanks averaged, mean of replicates
Sequence	E-score
AGACATCC	-0.0912
AACCTATG	0.173
AACGTTTA	0.173
AGATTACC	0.12
CCACTACC	-0.134
CCCCCCAC	-0.241
CACTGGAG	-0.215
ATTTTAAG	0.282
CTTATTGA	0.278
CCACAGAC	-0.226
AGGACGTA	-0.121
AGAAAAAT	0.359
AAAGGCGC	-0.191
ATCAGCGG	-0.221
ACTTATAC	0.293
CCAACCTC	-0.0777
ACCGCATG	-0.0874
AGTACTCC	-0.215
AATGCTAA	0.182
CAGACACA	0.0201
CACCTTCA	-0.0827
GGCTGGCA	-0.25
AAGACCGA	-0.0791
GCAGACAC	-0.0677
AGAGTACG	-0.0413

Study 6 — target: CCNA1, cyclin fold, Cln2 fusion (human); method: yeast growth competition, sequencing; sample: yeast; setting: weak parent motif; baseline: not given; direction: higher = stronger binding
Parent: HIRA docking peptide (human); SLSKRKLELEVET; partner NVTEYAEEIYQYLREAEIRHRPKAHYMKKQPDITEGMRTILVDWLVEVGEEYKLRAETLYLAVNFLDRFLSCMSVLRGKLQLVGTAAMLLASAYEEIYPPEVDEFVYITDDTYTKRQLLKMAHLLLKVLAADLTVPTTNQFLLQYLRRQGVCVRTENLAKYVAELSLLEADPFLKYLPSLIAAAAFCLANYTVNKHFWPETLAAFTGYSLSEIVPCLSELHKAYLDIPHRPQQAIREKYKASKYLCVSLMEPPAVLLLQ
Variant	normalised enrichment score
SLSKRKLELAVET [E10A]	-0.0295
SASKRKLELEVET [L2A]	0.24
SLSARKLELEVET [K4A]	-0.0741
SLSKKKLEFEVET [R5K L9F]	-0.065
SLSKAKLELEVET [R5A]	0.331
SLSKKKLELEVET [R5K]	0.122
SLSKRKLEAEVET [L9A]	0.365
SLSKRALELEVET [K6A]	0.336
ALSKRKLELEVET [S1A]	0.153
SLSKAKAELEVET [R5A L7A]	0.189

Some of these lines once more (study 6):
Variant	normalised enrichment score
SLSKRKLELAVET [E10A]	-0.0295
SASKRKLELEVET [L2A]	0.24
SLSARKLELEVET [K4A]	-0.0741
SLSKKKLEFEVET [R5K L9F]	-0.065
SLSKAKLELEVET [R5A]	0.331
SLSKKKLELEVET [R5K]	0.122
SLSKRKLEAEVET [L9A]	0.365
SLSKRALELEVET [K6A]	0.336
ALSKRKLELEVET [S1A]	0.153
SLSKAKAELEVET [R5A L7A]	0.189
